Measured values of several laboratories.
Compare with care: the assays were run in different laboratories. Numbers after ± are the reported error.
Technique: steady-state kinetics
B1: Mgst1 unactivated (Rattus norvegicus, UniProt P08011); chain ADLKQLMDNEVLMAFTSYATIILAKMMFLSSATAFQRLTNKVFANPEDCAGFGKGENAKKFLRTDEKVERVRRAHLNDLENIVPFLGIGLLYSLSGPDLSTALIHFRIFVGARIYHTIAYLTPLPQPNRGLAFFVGYGVTLSMAYRLLRSRLYL
B2: PRP43 R159A (Saccharomyces cerevisiae, UniProt P53131); chain MGSKRRFSSEHPDPVETSIPEQAAEIAEELSKQHPLPSEEPLVHHDAGEFKGLQRHHTSAEEAQKLEDGKINPFTGREFTPKYVDILKIRRELPVHAQRDEFLKLYQNNQIMVFVGETGSGKTTQIPQFVLFDEMPHLENTQVACTQPRRVAAMSVAQAVAEEMDVKLGEEVGYSIRFENKTSNKTILKYMTDGMLLREAMEDHDLSRYSCIILDEAHERTLATDILMGLLKQVVKRRPDLKIIIMSATLDAEKFQRYFNDAPLLAVPGRTYPVELYYTPEFQRDYLDSAIRTVLQIHATEEAGDILLFLTGEDEIEDAVRKISLEGDQLVREEGCGPLSVYPLYGSLPPHQQQRIFEPAPESHNGRPGRKVVISTNIAETSLTIDGIVYVVDPGFSKQKVYNPRIRVESLLVSPISKASAQQRAGRAGRTRPGKCFRLYTEEAFQKELIEQSYPEILRSNLSSTVLELKKLGIDDLVHFDFMDPPAPETMMRALEELNYLACLDDEGNLTPLGRLASQFPLDPMLAVMLIGSFEFQCSQEILTIVAMLSVPNVFIRPTKDKKRADDAKNIFAHPDGDHITLLNVYHAFKSDEAYEYGIHKWCRDHYLNYRSLSAADNIRSQLERLMNRYNLELNTTDYESPKYFDNIRKALASGFFMQVAKKRSGAKGYITVKDNQDVLIHPSTVLGHDAEWVIYNEFVLTSKNYIRTVTSVRPEWLIEIAPAYYDLSNFQKGDVKLSLERIKEKVDRLNELKQGKNKKKSKHSKK
B3: cyc1 F96W (Streptomyces coelicolor, UniProt Q9K499); chain MHAFPHGTTATPTAIAVPPSLRLPVIEAAFPRQLHPYWPKLQETTRTWLLEKRLMPADKVEEYADGLCYTDLMAGYYLGAPDEVLQAIADYSAWFWVWDDRHDRDIVHGRAGAWRRLRGLLHTALDSPGDHLHHEDTLVAGFADSVRRLYAFLPATWNARFARHFHTVIEAYDREFHNRTRGIVPGVEEYLELRRLTFAHWIWTDLLEPSSGCELPDAVRKHPAYRRAALLSQEFAAWYNDLCSLPKEIAGDEVHNLGISLITHHSLTLEEAIGEVRRRVEECITEFLAVERDALRFADELADGTVRGKELSGAVRANVGNMRNWFSSVYWFHHESGRYMVDSWDDRSTPPYVNNEAAGEK
B4: protein Y93W (Thermus thermophilus, UniProt Q5SKR5); chain MSAPKPFVIGIAGGTASGKTTLAQALARTLGERVALLPMDHYYKDLGHLPLEERLRVNYDHPDAFDLALYLEHAQALLRGLPVEMPVYDFRAWTRSPRRTPVRPAPVVILEGILVLYPKELRDLMDLKVFVDADADERFIRRLKRDVLERGRSLEGVVAQYLEQVKPMHLHFVEPTKRYADVIVPRGGQNPVALEMLAAKALARLARMGAA
B5: asnB (Escherichia coli, UniProt P22106); chain CSIFGVFDIKTDAVELRKKALELSRLMRHRGPDWSGIYASDNAILAHERLSIVDVNAGAQPLYNQQKTHVLAVNGEIYNHQALRAEYGDRYQFQTGSDCEVILALYQEKGPEFLDDLQGMFAFALYDSEKDAYLIGRDHLGIIPLYMGYDEHGQLYVASEMKALVPVCRTIKEFPAGSYLWSQDGEIRSYYHRDWFDYDAVKDNVTDKNELRQALEDSVKSHLMSDVPYGVLLSGGLDSSIISAITKKYAARRVEDQERSEAWWPQLHSFAVGLPGSPDLKAAQEVANHLGTVHHEIHFTVQEGLDAIRDVIYHIETYDVTTIRASTPMYLMSRKIKAMGIKMVLSGEGSDEVFGGYLYFHKAPNAKELHEETVRKLLALHMYDCARANKAMSAWGVEARVPFLDKKFLDVAMRINPQDKMCGNGKMEKHILRECFEAYLPASVAWRQKEQFSDGVGYSWIDTLKEVAAQQVSDQQLETARFRFPYNTPTSKEAYLYREIFEELFPLPSAAECVPGGPSVACSSAKAIEWDEAFKKMDDPSGRAVGVHQSAYK
B6: UGT1A9 (Homo sapiens, UniProt O60656); chain GKLLVVPMDGSHWFTMRSVVEKLILRGHEVVVVMPEVSWQLGRSLNCTVKTYSTSYTLEDLDREFKAFAHAQWKAQVRSIYSLLMGSYNDIFDLFFSNCRSLFKDKKLVEYLKESSFDAVFLDPFDNCGLIVAKYFSLPSVVFARGILCHYLEEGAQCPAPLSYVPRILLGFSDAMTFKERVRNHIMHLEEHLLCHRFFKNALEIASEILQTPVTEYDLYSHTSIWLLRTDFVLDYPKPVMPNMIFIGGINCHQGKPLPMEFEAYINASGEHGIVVFSLGSMVSEIPEKKAMAIADALGKIPQTVLWRYTGTRPSNLANNTILVKWLPQNDLLGHPMTRAFITHAGSHGVYESICNGVPMVMMPLFGDQMDNAKRMETKGAGVTLNVLEMTSEDLENALKAVINDKSYKENIMRLSSLHKDRPVEPLDLAVFWVEFVMRHKGAPHLRPAAHDLTWYQYHSLDVIGFLLAVVLTVAFITFKCCAYGYRKCLGKKGRVKKAHKSKTH
B7: ltaE H83F (Escherichia coli, UniProt P75823); chain MIDLRSDTVTRPSRAMLEAMMAAPVGDDVYGDDPTVNALQDYAAELSGKEAAIFLPTGTQANLVALLSHCERGEEYIVGQAAFNYLFEAGGAAVLGSIQPQPIDAAADGTLPLDKVAMKIKPDDIHFARTKLLSLENTHNGKVLPREYLKEAWEFTRERNLALHVDGARIFNAVVAYGCELKEITQYCDSFTICLSKGLGTPVGSLLVGNRDYIKRAIRWRKMTGGGMRQSGILAAAGIYALKNNVARLQEDHDNAAWMAEQLREAGADVMRQDTNMLFVRVGEENAAALGEYMKARNVLINASPIVRLVTHLDVSREQLAEVAAHWRAFLAR
B8: GTPBP3 E159V (Homo sapiens, UniProt Q969Y2); chain TRRSSGAPAPGSGATIFALSSGQGRCGIAVIRTSGPASGHALRILTAPRDLPLARHASLRLLSDPRSGEPLDRALVLWFPGPQSFTGEDCVEFHVHGGPAVVSGVLQALGSVPGLRPAEAGEFTRRAFANGKLNLTEVVGLADLIHAETEAQRRQALRQLDGELGHLCRGWAETLTKALAHVEAYIDFGEDDNLEEGVLEQADIEVRALQVALGAHLRDARRGQRLRSGVHVVVTGPPNAGKSSLVNLLSRKPVSIVSPEPGTTRDVLETPVDLAGFPVLLSDTAGLREGVGPVEQEGVRRARERLEQADLILAMLDASDLASPSSCNFLATVVASVGAQSPSDSSQRLLLVLNKSDLLSPEGPGPGPDLPPHLLLSCLTGEGLDGLLEALRKELAAVCGDPSTDPPLLTRARHQHHLQGCLDALGHYKQSKDLALAAEALRVARGHLTRLTGGGGTEEILDIIFQDFCVGK
B9: Paox H64N (Mus musculus, UniProt Q8C0L6); chain MAFPGPRVLVVGSGIAGLGAAQKLCSHRAAPHLRVLEATASAGGRIRSERCFGGVVELGAHWINGPSQDNPVFQLAAEFGLLGEKELSEENQLVDTGGHVALPSMIWSSSGTSVSLELMTEMARLFYGLIERTREFLNESETPMASVGEFLKKEISQQVASWTEDDEDTRKRKLAILNTFFNIECCVSGTHSMDLVALAPFGEYTVLPGLDCILAGGYQGLTDRILASLPKDTVAFDKPVKTIHWNGSFQEAAFPGETFPVLVECEDGARLPAHHVIVTVPLGFLKEHQDTFFEPPLPAKKAEAIKKLGFGTNNKIFLEFEEPFWEPDCQFIQVVWEDTSPLQDTALSLQDTWFKKLIGFLVQPSFESSHVLCGFIAGLESEFMETLSDEEVLLSLTQVLRRVTGNPQLPAAKSVRRSQWHSAPYTRGSYSYVAVGSTGDDLDLMAQPLPEDGTGTQLQVLFAGEATHRTFYSTTHGALLSGWREADRLVSLWDSQVEQSRPRL
B10: PduO (Limosilactobacillus reuteri, UniProt Q50EJ2); chain MKIYTKNGDKGQTRIIGKQILYKNDPRVAAYGEVDELNSWVGYTKSLINSHTQVLSNELEEIQQLLFDCGHDLATPADDERHSFKFKQEQPTVWLEEKIDNYTQVVPAVKKFILPGGTQLASALHVARTITRRAERQIVQLMREEQINQDVLIFINRLSDYFFAAARYANYLEQQPDMLYRNSKDVFR
UniProt P07914, sequence (whole entry, looked up): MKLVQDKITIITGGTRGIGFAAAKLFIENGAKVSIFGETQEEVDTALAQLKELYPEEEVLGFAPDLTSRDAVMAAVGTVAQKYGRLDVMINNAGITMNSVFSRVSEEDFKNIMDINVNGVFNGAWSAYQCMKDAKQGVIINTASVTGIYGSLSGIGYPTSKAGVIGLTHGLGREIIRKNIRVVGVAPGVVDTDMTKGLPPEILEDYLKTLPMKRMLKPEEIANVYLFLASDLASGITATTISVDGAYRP
UniProt Q9SKC5, sequence (whole entry, looked up): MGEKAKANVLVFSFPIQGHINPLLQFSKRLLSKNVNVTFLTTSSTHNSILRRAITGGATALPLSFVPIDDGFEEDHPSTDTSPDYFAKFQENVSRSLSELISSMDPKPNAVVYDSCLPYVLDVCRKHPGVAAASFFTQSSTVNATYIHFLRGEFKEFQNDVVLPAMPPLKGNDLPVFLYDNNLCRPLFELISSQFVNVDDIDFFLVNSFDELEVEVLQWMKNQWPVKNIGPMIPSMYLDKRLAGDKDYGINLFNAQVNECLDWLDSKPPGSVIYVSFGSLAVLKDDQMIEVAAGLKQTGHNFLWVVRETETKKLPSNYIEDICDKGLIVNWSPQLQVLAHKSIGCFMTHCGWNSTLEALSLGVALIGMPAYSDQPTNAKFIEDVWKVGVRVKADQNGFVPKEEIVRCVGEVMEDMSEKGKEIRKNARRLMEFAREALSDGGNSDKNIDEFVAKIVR

| Molecule | substrate | pH | temperature | setting | together with | measurement | value |
| --- | --- | --- | --- | --- | --- | --- | --- |
| B1 (Mgst1 unactivated) | NC(=O)c1ccc(Cl)c([N+](=O)[O-])c1 | pH 6.5 | 5 °C | potassium phosphate 0.1 M, unactivated enzyme | GSH 5 mM | kcat/Km | 290 ± 70 M⁻¹ s⁻¹ |
| B2 (PRP43 R159A) | Nc1ccn([C@@H]2O[C@H](COP(=O)(O)OP(=O)(O)OP(=O)(O)O)[C@@H](O)[C@H]2O)c(=O)n1 | pH 8 | – | KCl 100 mM, without Pfa1 | polyA 0.2 mM, magnesium acetate 2.5 mM | kcat/Km | 6500 ± 1300 M⁻¹ s⁻¹ |
| B3 (cyc1 F96W) | CC(C)=CCC/C(C)=C/CC/C(C)=C/CO[P@@](=O)(O)OP(=O)(O)O | pH 6.5 | 30 °C | – | MgCl2 10 mM | kcat/Km | 1200 ± 400 M⁻¹ s⁻¹ |
| B4 (protein Y93W) | Nc1ccn([C@@H]2O[C@H](CO)[C@@H](O)[C@H]2O)c(=O)n1 | pH 7.2 | 25 °C | KCl 100 mM | ATP 100–200 µM | kcat/Km | 6000 M⁻¹ s⁻¹ |
| UGT74D1 (Arabidopsis thaliana, UniProt Q9SKC5) | O=C(O)Cc1c[nH]c2ccccc12 | pH 7.5 | 30 °C | – | – | kcat/Km | 9170 M⁻¹ s⁻¹ |
| B5 (asnB) | NC(=O)CC[C@H](N)C(=O)O | pH 8 | 37 °C | 100 mM NaCl, glutaminase site | MgCl2; no ATP | kcat/Km | 1190 M⁻¹ s⁻¹ |
| BaiA1 (Clostridium scindens, UniProt P07914) | C[C@H](CCC(=O)SCCNC(=O)CCNC(=O)[C@H](O)C(C)(C)COP(=O)(O)OP(=O)(O)OC[C@H]1O[C@@H](n2cnc3c(N)ncnc32)[C@H](O)[C@@H]1OP(=O)(O)O)[C@H]1CC[C@H]2[C@@H]3[C@H](O)C[C@@H]4C[C@H](O)CC[C@]4(C)[C@H]3C[C@H](O)[C@]12C | pH 8.7 | 37 °C | – | NAD+ | kcat/Km | 11600 M⁻¹ s⁻¹ |
| B6 (UGT1A9) | COc1cc2oc(=O)cc(-c3ccccc3)c2cc1O | pH 7.4 | 37 °C | – | – | Km | 312 µM |
| B7 (ltaE H83F) | C[C@H](O)[C@H](N)C(=O)O | pH 7 | 30 °C | potassium phosphate 20 mM, retro-aldol cleavage | PLP 500 µM | kcat/Km | 8.83 M⁻¹ s⁻¹ |
| B8 (GTPBP3 E159V) | Nc1nc2c(ncn2[C@@H]2O[C@H](COP(=O)(O)OP(=O)(O)OP(=O)(O)O)[C@@H](O)[C@H]2O)c(=O)[nH]1 | pH 8 | 37 °C | KCl 300 mM | – | kcat/Km | 481 M⁻¹ s⁻¹ |
| B9 (Paox H64N) | CC(=O)NCCCNCCCCNCCCN | pH 10 | 30 °C | – | – | kcat/Km | 17000 ± 1000 M⁻¹ s⁻¹ |
| B10 (PduO) | Nc1ncnc2c1ncn2[C@@H]1O[C@H](COP(=O)(O)OP(=O)(O)OP(=O)(O)O)[C@@H](O)[C@H]1O | pH 8 | 37 °C | anoxic | cob(I)alamin | kcat/Km | 12000 ± 1000 M⁻¹ s⁻¹ |
